# Published values pooled from the literature.
# Each line is one published result; not all experiments were run side by side. Values joined by “and” are separate records of one study, mostly repeats; a detail may differ. ± marks the error that the study gave.
# Ubiquitin carboxyl-terminal hydrolase 39 ZnF-UBD domain: Ubiquitin carboxyl-terminal hydrolase 39, ZnF-UBD domain (Homo sapiens, UniProt Q53GS9)
# UniProt Q53GS9, sequence (whole entry, looked up): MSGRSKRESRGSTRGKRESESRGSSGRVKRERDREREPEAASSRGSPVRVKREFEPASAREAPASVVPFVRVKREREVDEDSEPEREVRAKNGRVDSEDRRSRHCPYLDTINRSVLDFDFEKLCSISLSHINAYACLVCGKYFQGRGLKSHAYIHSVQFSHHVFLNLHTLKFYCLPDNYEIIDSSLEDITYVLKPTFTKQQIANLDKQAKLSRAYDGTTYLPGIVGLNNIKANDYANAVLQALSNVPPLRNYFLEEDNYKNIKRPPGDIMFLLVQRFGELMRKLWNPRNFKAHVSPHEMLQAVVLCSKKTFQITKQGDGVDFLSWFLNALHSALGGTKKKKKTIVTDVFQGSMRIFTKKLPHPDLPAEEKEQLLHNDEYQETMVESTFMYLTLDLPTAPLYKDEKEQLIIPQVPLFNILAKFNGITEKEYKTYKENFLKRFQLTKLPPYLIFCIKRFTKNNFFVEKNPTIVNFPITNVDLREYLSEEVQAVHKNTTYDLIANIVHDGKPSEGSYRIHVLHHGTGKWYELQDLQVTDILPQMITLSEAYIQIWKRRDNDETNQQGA
SMILES,target or system,assay,test system,setting,scale,measurement,result
O=C(O)C(O)CO (stereo not drawn),,"binding, equilibrium dialysis LC-MS",,"5 µM, thermostabilized A2AR-BRIL construct","reference: no-protein control, direction not given",z-scored log2 fold change,0.431
CCNc1nc2c(c(N3CC(=O)Nc4cc(OC)ccc43)n1)CCC2,,immunohistochemistry,"mouse, A-375/TxR xenograft",2 or 4 mg/kg,reference: vehicle,lung or liver metastasis,inhibited
Cn1cc(Nc2nccc(-c3ccc4c(c3)CN(C3COC3)CC[C@H]4NC(=O)c3cn(C(C)(C)C)nn3)n2)cn1,,refers to: PFKFB4 signaling pathway,"splenic B cells, mice","30 mg/kg, IgD-activated in vivo","reference: vehicle, direction not given",pathway activation z-score,1.13
N#CCc1ccc(O)c(Cc2ccc(O)cc2)c1,,ABTS radical,,300 µg/mL,,radical scavenging,79.7 ± 1.52%
CC(=O)Oc1cc2c(s1)CCN(C(C(=O)C1CC1)c1ccccc1F)C2 (stereo not drawn),,"platelet aggregation, light transmission aggregometry","human patients, platelet-rich plasma","dose not given, 15 min, inhibition threshold 90%, added: ADP 5 µM",,patients with inhibition above threshold,0%
COCCOC(=O)C1=C(C)NC(C)=C(C(=O)OC(C)C)C1c1cccc([N+](=O)[O-])c1 (stereo not drawn),,whole-cell current clamp,"DRG neurons, naive rat","dose not given, 4 h",,action potential threshold,-34.9 mV and -26.9 mV and -25.5 mV and -31.4 mV and -35.3 mV
c1ccc(-c2n[nH]cc2-c2ccnc3ccccc23)nc1,,"kinase binding, competitor, MIB/MS competition, refers to: KSP1",Candida albicans cell lysate,10 µM,reference: DMSO,log2 fold change,1.28
N#Cc1ccc2c(c1)[C@H]1CCCN(C(=O)c3ccc4[nH]cnc4c3)[C@H]1C2,,,human clinical trial,"oral, 240 mg once daily, 28 d",,diastolic blood pressure change,-0.8 mmHg
C[C@@H](O)CCOC(=O)C[C@@H](C)O,,refers to: insulin,"human, plasma","concentration not given, 60 min",reference: baseline,log2 fold change,1.09 pg/mL
CN(C)C(=O)Nc1cccc(-c2ccc(N(C)C)cc2)c1,,,mouse high-fat diet,dose not given,reference: body weight,eWAT weight,5.39% and 4.23% and 3.85% and 3.46% and 4.81% and 5.46%
O=C(O)CNC(=O)Cc1ccccc1,,,"ventricular cardiomyocytes, C57BL/6 mouse","dose not given, 0.276 s",,sarcomere length,1.68 µm
O=C(/C=C/c1ccc(O)c(O)c1/C=C/c1ccc(O)c(O)c1)O[C@H](Cc1ccc(O)c(O)c1)C(=O)O,,,isolated myocardial tissue,10 µM,,LVEDP,2.68 mmHg
CC(C)NCC(O)c1ccc(O)c(O)c1 (stereo not drawn),,,"ventricular cardiomyocytes, C57BL/6 mouse","dose not given, 0.048 s",,sarcomere length,1.72 µm
C[C@H]1C[C@H]2CSC(N)=N[C@@]2(c2nc(NC(=O)c3ccc(OC(F)F)cn3)cs2)CO1,,refers to: Aβx-40,"healthy adults, plasma","12 mg single dose, 4 h post-dose",reference: placebo,percent change from baseline,-48.4%
COc1cc2cc(-c3ccc(CC(=O)Nc4cc(C(C)(C)C(F)(F)F)no4)cn3)cnc2cc1OC,,,human RET-mutant medullary thyroid cancer,"75 mg, phase I, RECIST 1.1",,objective response rate,29%
C[C@H](CS)C(=O)N1CCC[C@H]1C(=O)O,,acetic acid writhing test,male ICR-CD1 mice,"intracerebroventricular, 100 µg/mouse, 30 min, added: 1% acetic acid i.p.",,writhing count,48 and 45 and 41 and 53 and 68 and 33
N[C@@H](CC(=O)O)C(=O)N[C@@H](Cc1ccccc1)C(=O)O,,"binding, equilibrium dialysis LC-MS",,"5 µM, thermostabilized A2AR-BRIL construct","reference: no-protein control, direction not given",z-scored log2 fold change,0.097
COc1nnc2ccc(N3CCC(c4ccc(OCCN5CCN(C)C(=O)[C@H]5C)cc4)CC3)nn12,,,human patients,"5 mg twice daily, 2-fold above baseline, monotherapy and combination cohorts",,time above HEXIM1 threshold,0.15 h
C[C@H](Oc1ccc(Br)cc1-c1ccon1)C(=O)O,,muscle velocity recovery cycle,"human, tibialis anterior muscle","600 mg once daily, first response latency at 15 Hz, multiple ascending dose",,difference from placebo,-0.102%
CN(C(=O)n1cnc(-c2ccc[n+]([O-])c2)c1)C1CCCCC1,,,"mouse, formalin paw test","oral, 0.3 mg/kg, 225 min before formalin, late phase",direction not given,licking score,13.2
CO[C@H]1CC[C@H](N2C(=O)CNc3ncc(-c4ccc(C(C)(C)O)nc4)nc32)CC1,,flow cytometry,"stimulated T cells, human, blood","45 mg single dose, 5 h, median",reference: baseline,p4EBP1 change from baseline,-48%
O=Cc1ccc(O)cc1,,ABTS radical,,300 µg/mL,,radical scavenging,21.3 ± 0.88%
COC(=O)CCc1ccc(OCC(O)CNC(C)C)cc1 (stereo not drawn),,,healthy male humans,"concentration not given, 15 min, baseline before dosing, added: saline",,diastolic blood pressure,62.8 mm Hg
CC1(C)CCC(c2ccc(Cl)cc2)=C(CN2CCN(c3ccc(C(=O)NS(=O)(=O)c4ccc(N[C@H](CCN5CCOCC5)CSc5ccccc5)c(S(=O)(=O)C(F)(F)F)c4)cc3)CC2)C1,,"cell killing, flow cytometry PI exclusion","canine blood CD21+ B cells, dog 33",24 h,,EC50,0.461 µM
OC(CCN1CCCCC1)(c1ccccc1)C1CC2C=CC1C2 (stereo not drawn),,resting-state EEG,healthy elderly humans,"oral, 4 mg, eyes open, LS mean",reference: baseline,change in EEG Beta1-power Pz-O1,-8.5%
CC(C)(C)c1ccc(/C=C/C(=O)Nc2ccc3c(c2)OCCO3)cc1,,nociceptive behaviour,mouse,"intraplantar, 10 µg",,licking duration,0 s
CC(=O)N[C@H]1[C@@H](OP(=O)(O)OP(=O)(O)OC[C@H]2O[C@@H](n3ccc(=O)[nH]c3=O)[C@H](O)[C@@H]2O)O[C@H](CO)[C@H](O)[C@@H]1O,,"binding, equilibrium dialysis LC-MS",,"5 µM, thermostabilized A2AR-BRIL construct","reference: no-protein control, direction not given",z-scored log2 fold change,0.0789
CN(C)C(=O)Oc1cccc([N+](C)(C)C)c1,,neuromuscular block reversal,rat,"dose not given, 8.5 (unit not given), added: cisatracurium",reference: T1 twitch,train-of-four ratio,65.6
N#Cc1c2n(c3c(=O)n(CC(=O)O)cnc13)CCCC2,Ubiquitin carboxyl-terminal hydrolase 39 ZnF-UBD domain,,,,,Kd,> 1000 µM
N#Cc1ccc2c(-c3ccncc3)c(-c3ccc(F)cc3)nn2c1,,"kinase binding, competitor, MIB/MS competition, refers to: CAK1",Candida albicans cell lysate,100 nM,reference: DMSO,log2 fold change,-0.384
C=CCn1c(=O)c2cnc(Nc3ccc(N4CCN(C)CC4)cc3)nc2n1-c1ccc2c(n1)[C@@](O)(CC)CC2,,,"Calu-6 xenograft, BALB/c nude mice","oral, 80 mg/kg once daily x 26, day 21",reference: vehicle,tumour growth inhibition,47.8%
CC(c1cc2ccccc2s1)N(O)C(N)=O (stereo not drawn),,refers to: 5-HETE,human whole blood,"3 µM, added: Escherichia coli",,amount,515 ± 130 pg/mL blood
Cn1cc([C@H]2C[C@H]3CSC(N)=N[C@@]3(c3ccc(F)cc3F)CO2)cn1,,refers to: Aβx-40,"Mus musculus wild-type, cerebrospinal fluid","subcutaneous, 10 mg/kg, 3 h",,Aβ40 level,0.6 ng/mL
NC(N)=O,,"binding, equilibrium dialysis LC-MS",,"5 µM, thermostabilized A2AR-BRIL construct","reference: no-protein control, direction not given",z-scored log2 fold change,0.249
Cc1c(C)n(Cc2cccc(OC(C)(C)C(=O)O)c2)c2ccc(C(=O)N[C@@H](C)c3ccc(C(C)(C)C)cc3)cc12,,,"C57BL/6 mouse, diet-induced obesity, proximal tibia",dose not given,,tissue volume,4.06 ± 0.312 mm3
COc1ccc(-c2cncc(N[C@@H](C)c3cccc(NC(=O)c4cncc(C)c4)c3)n2)cc1OC,,refers to: rno-miR-340-5p,"rat SU5416/hypoxia model, lung","dose not given, unit not given",reference: SU5416/hypoxia vehicle,delta delta Ct,0.54
N#Cc1ccn2c(-c3ccncc3)c(-c3ccc(F)cc3)nc2c1,,"kinase binding, competitor, MIB/MS competition, refers to: PKH3",Candida albicans cell lysate,1 µM,reference: DMSO,log2 fold change,-0.0424
NC(=O)c1cnc2[nH]ccc2c1N[C@@H]1[C@@H]2CC3C[C@H]1C[C@@](O)(C3)C2,,"flow cytometry, refers to: CD4+ naive T cells","Japanese healthy subjects, peripheral blood","oral, 10 mg twice daily, day 7",,change from baseline,-3.47%
CCC(C)C(=O)NCC(=O)O (stereo not drawn),,"binding, equilibrium dialysis LC-MS",,"5 µM, thermostabilized A2AR-BRIL construct","reference: no-protein control, direction not given",z-scored log2 fold change,-1.03
Cc1cc(C)c(CNC(=O)c2cc(Cl)c3c(c2C)O[C@@](C)([C@H]2CC[C@H](N(C)C)CC2)O3)c(=O)[nH]1,,modified 2009 ATLL criteria,"human, relapsed/refractory adult T-cell leukaemia-lymphoma",dose not given,,best overall response CR,29%
O=C(O)CC[C@H](O)C(=O)O,,"binding, equilibrium dialysis LC-MS",,"5 µM, thermostabilized A2AR-BRIL construct","reference: no-protein control, direction not given",z-scored log2 fold change,0.267
CC(C)c1ncc(C(=O)N2CCOC3(CCN(Cc4ccc(F)c(CCNC[C@H](O)c5ccc(O)c6[nH]c(=O)sc56)c4)CC3)C2)s1,,,COPD patients,"172 µg single, 24 h, day 1","reference: baseline, placebo-corrected",trough FEV1 change,85 mL
O=C(O)CCn1ccccc1=O,Ubiquitin carboxyl-terminal hydrolase 39 ZnF-UBD domain,,,,,Kd,> 1000 µM
O=P(O)(O)C(Cl)(Cl)P(=O)(O)O,,immunostaining,"mouse, SAH model, hippocampal fissure","dose not given, day 1",reference: total area,Iba1-positive area,0.59%
CN(C)C(=O)c1cc2cnc(Nc3ccc(N4CCNCC4)cn3)nc2n1C1CCCC1,,"RNA-seq GSEA, refers to: HALLMARK_P53_PATHWAY",MB002 tumour,"concentration not given, in vivo","reference: vehicle, direction not given",GSEA enrichment score,-0.285
CC(=O)N[C@@H](C)C(=O)O,,"binding, equilibrium dialysis LC-MS",,"5 µM, thermostabilized A2AR-BRIL construct","reference: no-protein control, direction not given",z-scored log2 fold change,-0.378
Oc1ccc(Br)cc1C=NCCN1CCOCC1,,hydroxyl radical scavenging,,160 µM,,inhibition,35.7%
CCN1CCN(Cc2ccc(Nc3ncc(F)c(-c4cc(F)c5nc6n(c5c4)[C@H](C)CCC6)n3)nc2)CC1,,,human advanced solid tumours,"200 mg, phase Ia monotherapy RECIST 1.1",,objective response rate,0%
NC(=O)c1cccnc1,,"binding, equilibrium dialysis LC-MS",,"5 µM, thermostabilized A2AR-BRIL construct","reference: no-protein control, direction not given",z-scored log2 fold change,0.119
CCCCC1(CCCC)CN(c2ccccc2)c2cc(SC)c(OCC(=O)N[C@@H](C(=O)NCC(=O)O)c3ccccc3)cc2S(=O)(=O)C1,,refers to: 7α-hydroxy-4-cholesten-3-one,human,"5 mg once daily, 120 h",,plasma C4 level,49.7 ng/mL
Cc1ccc(C(=O)Nc2nnc(S(N)(=O)=O)s2)cc1,"Alpha-carbonic anhydrase (Enterococcus faecium, UniProt Q3XYE8)","CO2 hydration, inhibitor, stopped-flow kinetics",,,,Ki,0.0382 µM

# A few entries again:
SMILES,target or system,assay,test system,setting,scale,measurement,result
CO[C@H]1CC[C@H](N2C(=O)CNc3ncc(-c4ccc(C(C)(C)O)nc4)nc32)CC1,,flow cytometry,"stimulated T cells, human, blood","45 mg single dose, 5 h, median",reference: baseline,p4EBP1 change from baseline,-48%
O=Cc1ccc(O)cc1,,ABTS radical,,300 µg/mL,,radical scavenging,21.3 ± 0.88%
COC(=O)CCc1ccc(OCC(O)CNC(C)C)cc1 (stereo not drawn),,,healthy male humans,"concentration not given, 15 min, baseline before dosing, added: saline",,diastolic blood pressure,62.8 mm Hg
